# Published values collected from several papers.
# Protocols differ between the studies behind these lines. Values joined by “and” are separate records of one study, mostly repeats; a detail may differ. Numbers after ± are the reported error.
# RIPK1: Receptor-interacting serine/threonine-protein kinase 1 (RIPK1, Homo sapiens, UniProt Q13546)
# Chain of UniProt Q13546 (whole entry, looked up): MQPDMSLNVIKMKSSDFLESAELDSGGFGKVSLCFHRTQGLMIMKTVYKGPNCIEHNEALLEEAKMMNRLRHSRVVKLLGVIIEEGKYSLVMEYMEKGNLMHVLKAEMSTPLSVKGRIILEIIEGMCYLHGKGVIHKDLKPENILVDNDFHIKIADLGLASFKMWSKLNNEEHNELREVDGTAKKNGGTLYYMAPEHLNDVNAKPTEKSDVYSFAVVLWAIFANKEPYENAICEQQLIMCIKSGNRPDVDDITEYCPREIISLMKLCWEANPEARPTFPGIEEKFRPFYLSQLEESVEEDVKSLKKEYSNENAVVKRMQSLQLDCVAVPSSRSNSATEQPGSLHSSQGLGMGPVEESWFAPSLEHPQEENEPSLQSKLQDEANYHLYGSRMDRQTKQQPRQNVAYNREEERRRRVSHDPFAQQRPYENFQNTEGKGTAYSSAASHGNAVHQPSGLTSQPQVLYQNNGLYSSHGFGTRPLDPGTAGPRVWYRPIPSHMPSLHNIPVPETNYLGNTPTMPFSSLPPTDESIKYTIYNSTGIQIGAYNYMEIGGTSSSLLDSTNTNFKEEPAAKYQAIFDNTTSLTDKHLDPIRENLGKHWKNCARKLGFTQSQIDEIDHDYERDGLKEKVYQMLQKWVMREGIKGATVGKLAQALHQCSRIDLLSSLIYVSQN
# ribH: 6,7-dimethyl-8-ribityllumazine synthase (ribH, Mycobacterium tuberculosis, UniProt P9WHE9)
# Chain of UniProt P9WHE9 (whole entry, looked up): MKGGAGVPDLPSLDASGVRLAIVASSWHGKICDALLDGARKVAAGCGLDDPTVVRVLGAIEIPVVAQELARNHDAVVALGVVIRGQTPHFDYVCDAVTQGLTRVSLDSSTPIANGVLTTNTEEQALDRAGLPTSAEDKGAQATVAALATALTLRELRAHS
# CYP2A6: Cytochrome P450 2A6 (CYP2A6, Homo sapiens, UniProt P11509)
# Chain of UniProt P11509 (whole entry, looked up): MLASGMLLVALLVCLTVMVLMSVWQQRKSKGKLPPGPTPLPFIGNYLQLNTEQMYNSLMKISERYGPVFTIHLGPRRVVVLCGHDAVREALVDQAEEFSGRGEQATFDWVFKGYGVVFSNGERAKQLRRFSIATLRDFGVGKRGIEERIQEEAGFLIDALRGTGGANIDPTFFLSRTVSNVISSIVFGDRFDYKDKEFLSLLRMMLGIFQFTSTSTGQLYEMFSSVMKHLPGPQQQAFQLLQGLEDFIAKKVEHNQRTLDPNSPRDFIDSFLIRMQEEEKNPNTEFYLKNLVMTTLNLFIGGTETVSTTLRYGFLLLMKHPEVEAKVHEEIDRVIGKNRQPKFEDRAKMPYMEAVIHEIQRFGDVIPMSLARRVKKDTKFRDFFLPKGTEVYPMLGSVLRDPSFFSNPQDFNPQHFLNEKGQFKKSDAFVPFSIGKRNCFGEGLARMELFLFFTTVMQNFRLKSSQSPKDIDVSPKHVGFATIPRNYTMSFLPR
# TSPO A147T: Translocator protein, A147T (TSPO, Homo sapiens, UniProt P30536)
# Chain of UniProt P30536 (whole entry, unmodified, looked up): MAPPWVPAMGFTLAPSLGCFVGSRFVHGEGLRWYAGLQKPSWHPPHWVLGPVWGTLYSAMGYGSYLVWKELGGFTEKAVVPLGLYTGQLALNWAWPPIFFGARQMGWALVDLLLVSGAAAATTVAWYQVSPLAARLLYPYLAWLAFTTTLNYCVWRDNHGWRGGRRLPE
# MAPK1: Mitogen-activated protein kinase 1 (MAPK1, Homo sapiens, UniProt P28482)
# Chain of UniProt P28482 (whole entry, looked up): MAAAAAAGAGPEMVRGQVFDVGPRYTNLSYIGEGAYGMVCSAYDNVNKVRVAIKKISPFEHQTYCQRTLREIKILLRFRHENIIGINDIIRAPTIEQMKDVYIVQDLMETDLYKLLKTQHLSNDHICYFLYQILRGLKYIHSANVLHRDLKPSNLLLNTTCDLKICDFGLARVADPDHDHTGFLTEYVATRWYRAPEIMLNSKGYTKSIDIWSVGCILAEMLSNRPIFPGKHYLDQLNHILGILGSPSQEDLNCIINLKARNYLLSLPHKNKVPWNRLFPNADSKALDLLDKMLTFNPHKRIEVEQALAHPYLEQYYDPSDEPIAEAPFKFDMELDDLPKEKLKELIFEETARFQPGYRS
# ANPEP: Aminopeptidase N (ANPEP, Sus scrofa, UniProt P15145)
# Chain of UniProt P15145 (whole entry, looked up): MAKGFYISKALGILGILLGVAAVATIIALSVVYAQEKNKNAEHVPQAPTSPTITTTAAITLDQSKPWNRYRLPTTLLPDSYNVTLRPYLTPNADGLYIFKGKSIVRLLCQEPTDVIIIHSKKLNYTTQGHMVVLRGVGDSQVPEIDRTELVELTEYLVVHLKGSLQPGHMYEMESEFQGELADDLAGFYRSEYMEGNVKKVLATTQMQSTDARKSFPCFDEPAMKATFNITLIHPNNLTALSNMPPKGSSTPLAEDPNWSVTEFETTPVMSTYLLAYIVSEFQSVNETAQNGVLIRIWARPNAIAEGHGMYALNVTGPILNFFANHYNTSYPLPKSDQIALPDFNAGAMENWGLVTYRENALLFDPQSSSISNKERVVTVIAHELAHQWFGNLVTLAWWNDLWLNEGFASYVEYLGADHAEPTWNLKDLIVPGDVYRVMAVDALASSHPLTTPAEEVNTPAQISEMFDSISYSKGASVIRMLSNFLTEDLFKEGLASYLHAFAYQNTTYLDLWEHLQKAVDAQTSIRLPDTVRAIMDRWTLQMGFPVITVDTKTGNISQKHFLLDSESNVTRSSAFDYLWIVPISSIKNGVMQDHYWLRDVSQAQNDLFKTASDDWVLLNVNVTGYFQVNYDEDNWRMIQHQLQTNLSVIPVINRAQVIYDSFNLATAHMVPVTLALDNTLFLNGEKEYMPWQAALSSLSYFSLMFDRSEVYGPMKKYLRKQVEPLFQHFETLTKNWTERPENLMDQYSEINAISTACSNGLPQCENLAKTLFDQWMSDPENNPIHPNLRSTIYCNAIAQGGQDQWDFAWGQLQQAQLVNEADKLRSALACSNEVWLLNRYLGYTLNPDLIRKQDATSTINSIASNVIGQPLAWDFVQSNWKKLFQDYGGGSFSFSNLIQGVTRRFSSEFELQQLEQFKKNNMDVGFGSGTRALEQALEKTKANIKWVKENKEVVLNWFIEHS
# Chain of UniProt P32245 (whole entry, looked up): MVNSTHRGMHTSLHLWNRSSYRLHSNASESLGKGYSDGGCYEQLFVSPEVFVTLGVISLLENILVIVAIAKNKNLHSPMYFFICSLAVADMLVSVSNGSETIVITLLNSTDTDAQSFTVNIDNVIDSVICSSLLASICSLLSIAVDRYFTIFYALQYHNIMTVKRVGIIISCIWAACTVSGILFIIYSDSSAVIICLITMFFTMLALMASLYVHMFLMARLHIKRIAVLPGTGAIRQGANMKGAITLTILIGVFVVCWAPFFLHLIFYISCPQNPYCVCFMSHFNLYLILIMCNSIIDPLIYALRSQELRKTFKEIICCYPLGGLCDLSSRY
# Chain of UniProt O60218 (whole entry, looked up): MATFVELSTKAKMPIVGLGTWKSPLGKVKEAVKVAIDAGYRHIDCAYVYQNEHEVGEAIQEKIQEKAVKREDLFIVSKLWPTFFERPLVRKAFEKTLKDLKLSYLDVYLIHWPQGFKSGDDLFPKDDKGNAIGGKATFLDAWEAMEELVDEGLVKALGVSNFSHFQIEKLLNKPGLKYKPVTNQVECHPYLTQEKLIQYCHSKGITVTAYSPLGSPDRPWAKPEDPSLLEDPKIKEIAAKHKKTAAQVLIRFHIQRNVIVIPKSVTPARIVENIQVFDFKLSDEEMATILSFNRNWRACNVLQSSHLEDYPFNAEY
# Chain of UniProt P16068 (whole entry, looked up): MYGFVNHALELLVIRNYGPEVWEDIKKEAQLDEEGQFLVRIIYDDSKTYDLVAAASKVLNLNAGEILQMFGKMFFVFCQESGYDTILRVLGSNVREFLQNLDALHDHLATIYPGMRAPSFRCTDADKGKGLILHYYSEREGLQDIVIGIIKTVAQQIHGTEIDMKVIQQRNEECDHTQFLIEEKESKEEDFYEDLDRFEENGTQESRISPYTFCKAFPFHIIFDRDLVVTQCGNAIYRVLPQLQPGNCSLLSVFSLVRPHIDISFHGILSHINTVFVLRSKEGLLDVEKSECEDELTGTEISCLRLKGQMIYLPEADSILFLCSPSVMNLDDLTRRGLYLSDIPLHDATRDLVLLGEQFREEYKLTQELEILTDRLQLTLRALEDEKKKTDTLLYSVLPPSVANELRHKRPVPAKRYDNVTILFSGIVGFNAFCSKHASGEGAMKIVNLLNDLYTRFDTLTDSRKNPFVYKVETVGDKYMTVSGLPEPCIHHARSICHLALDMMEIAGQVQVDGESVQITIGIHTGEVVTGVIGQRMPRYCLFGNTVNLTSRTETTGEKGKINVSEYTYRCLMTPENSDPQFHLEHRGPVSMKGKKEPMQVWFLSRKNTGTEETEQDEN
# Chain of UniProt P34897 (whole entry, looked up): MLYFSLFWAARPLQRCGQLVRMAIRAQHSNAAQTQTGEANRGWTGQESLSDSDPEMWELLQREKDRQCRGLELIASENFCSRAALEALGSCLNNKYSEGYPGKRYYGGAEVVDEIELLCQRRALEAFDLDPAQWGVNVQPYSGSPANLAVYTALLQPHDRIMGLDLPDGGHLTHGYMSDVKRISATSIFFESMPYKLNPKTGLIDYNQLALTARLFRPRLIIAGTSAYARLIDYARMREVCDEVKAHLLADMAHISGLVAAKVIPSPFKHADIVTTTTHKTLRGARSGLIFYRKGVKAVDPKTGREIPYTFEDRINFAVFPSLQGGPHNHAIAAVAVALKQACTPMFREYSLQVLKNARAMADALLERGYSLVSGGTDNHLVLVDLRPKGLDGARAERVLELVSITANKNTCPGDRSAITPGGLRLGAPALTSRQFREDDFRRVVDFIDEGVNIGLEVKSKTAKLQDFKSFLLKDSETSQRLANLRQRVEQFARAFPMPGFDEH
Molecule,target,assay,system,conditions,Ki
COc1ccc2c(c1)C1=NN(C(C)=O)C(c3ccc(F)cc3)C1CC2 (stereo not drawn),RIPK1,"binding, fluorescence polarisation competition",,together with: fluorescein-necrostatin-3,0.76 ± 0.21 µM
CCCCCCCCCCCCNC(=O)[C@@H]1CCCN1C(=O)[C@@H]1CCCN1,"Plasma kallikrein (KLKB1, Homo sapiens, UniProt P03952)","enzyme activity, inhibitor",,,> 1000 µM
O=c1[nH]c(/C=C/c2ccc(Br)cc2)c([N+](=O)[O-])c(=O)[nH]1,ribH,"enzyme activity, inhibitor",,pH 7.0,26 ± 5 µM
CN1C(=O)C(Cc2c[nH]c3ccccc23)NC1=S (stereo not drawn),RIPK1,"binding, fluorescence polarisation competition",,together with: fluorescein-necrostatin-3,2.4 ± 0.4 µM
CCCCCCCCCCC=O,CYP2A6,inhibitor,,"30 min, pH 7.4",68 ± 7 µM
CCOC(=O)C1(CCN2CCc3ccccc3C2)Cc2cc(Cl)ccc2C1=O (stereo not drawn),"HTR2B (Homo sapiens, UniProt P41595)","ligand displacement, radioligand",,,0.0162 µM
Nc1nc(=O)[nH]nc1Nc1ccc(O)cc1,"GUCY1B1/GUCY1A1 (Bos taurus, UniProt P16068+P19687)","enzyme activity, inhibitor",,"non-competitive, together with: SNAP 100 µM, GTP",28 ± 11 µM
Cc1cccc(Nc2cc(Cl)nc(SCC(=O)O)n2)c1C,"AKR1B10 (Homo sapiens, UniProt O60218)","enzyme activity, inhibitor",,,45 µM
CCCCCCCCCCCC=O,CYP2A6,inhibitor,,"30 min, pH 7.4",48 ± 9 µM
CC(=O)N[C@H]1C(O)O[C@H](CO)[C@@H](O[C@@H]2O[C@H](CO)[C@H](O)[C@H](O)[C@H]2O)[C@@H]1O[C@@H]1O[C@@H](C)[C@@H](O)[C@@H](O)[C@@H]1O (stereo partly drawn),"Collectin-12, C-type lectin domain (COLEC12, Homo sapiens, UniProt Q5KU26)",,,,87 µM
Nc1ncnc2c1ncn2[C@@H]1O[C@H](COP(=O)(O)OP(=O)(O)OP(=O)(O)O)[C@@H](O)[C@H]1O,"ALPI (Bos taurus, UniProt P19111)",,,pH 8,7.6 ± 1.8 µM
CCN(CC)C(=O)Cn1c2ccccc2c2cc(-c3ccccc3)ccc21,TSPO A147T,radioligand binding,,together with: [3H]PK11195,0.16 ± 0.031 µM
COc1ccccc1/C=C/c1nc(O)nc(O)c1[N+](=O)[O-],ribH,"enzyme activity, inhibitor",,pH 7.0,28 ± 7 µM
Nc1nc2[nH]c(CCCc3ccc(C(=O)N[C@@H](CCC(=O)O)C(=O)O)s3)cc2c(=O)[nH]1,"SHMT2 (Homo sapiens, UniProt P34897)","enzyme activity, inhibitor, fluorescence",,,188 µM
O=C(CC(F)(F)F)Nc1c(NC[C@H](O)[C@H](O)[C@H](O)CO)[nH]c(=O)[nH]c1=O,ribH,inhibitor,,"pH 7.0, together with: substrate 1 varied, other substrate 2 constant",100 ± 20 µM
O=c1[nH]c(/C=C/c2ccccc2O)c([N+](=O)[O-])c(=O)[nH]1,ribH,"enzyme activity, inhibitor",,pH 7.0,95 ± 6 µM
5′-deoxy-5′-Pro-DADMe-ImmA,"MTA/SAH nucleosidase (Campylobacter jejuni subsp. jejuni, UniProt Z9IB28FKP7)",inhibitor,,slow-onset tight binding,0.0014 µM
O=c1[nH]c(/C=C/c2cccc(O)c2)c([N+](=O)[O-])c(=O)[nH]1,ribH,"enzyme activity, inhibitor",,pH 7.0,7.1 ± 0.8 µM
Nc1ccc(C(=O)O)cc1,mushroom tyrosinase,"monophenolase activity, inhibitor",,"pH 6.8, 20 °C, together with: p-coumaric acid substrate",3.8 µM
CCCCC/C=C/C=O,CYP2A6,inhibitor,,"30 min, pH 7.4",7 ± 1 µM
COc1cc(/C=C/C(=O)N2CCC=CC2=O)cc(OC)c1OC,"STAT3 (Homo sapiens, UniProt P40763)","binding to pY peptide, surface plasmon resonance",,,0.068 µM
CCOC(=O)C1=CC(C)(C(=O)c2ccccc2)CCC1=O (stereo not drawn),MAPK1,"ligand displacement, FP",,,144 µM
NC(=O)[C@H](CO)NC(=O)CCCCCn1cc(COc2cc(OCc3cn(CCCCCC(=O)N[C@@H](CO)C(N)=O)nn3)cc(OCc3cn(CCCCCC(=O)N[C@@H](CO)C(N)=O)nn3)c2)nn1,"MC4R (Homo sapiens, UniProt P32245)",competitive binding,HEK293 expressing MC4R and CCK2R,,> 10 µM
O=C(CCl)Nc1c(NC[C@H](O)[C@H](O)[C@H](O)CO)[nH]c(=O)[nH]c1=O,ribH,inhibitor,,"pH 7.0, together with: substrate 1 varied, other substrate 2 constant",57 ± 22 µM
O=C(NNC(=NS(=O)(=O)c1ccc(-n2nc(C(F)(F)F)cc2-c2cccs2)cc1)N1CCCC1)c1ccc(Cl)cc1,ANPEP,"enzyme activity, inhibitor",,"30 min preincubation, 37 °C, together with: L-Leu-pNA",1.95 µM
Nc1nc2c(ncn2[C@@H]2O[C@@H]3COP(=O)(O)O[C@H]3[C@H]2O)c(=O)[nH]1,"Cyclic nucleotide-gated potassium channel (Spirochaeta thermophila, UniProt G0GA88)","channel activity, inhibitor, single-channel bilayer recording",,"100 mV, together with: cAMP 100 µM",~4 µM and 4 µM
COc1ccncc1C=O,"Nicotinamidase (Plasmodium falciparum, UniProt O97284)",competitive inhibitor,,together with: nicotinamide,1 ± 0.11 µM
O=c1[nH]c(/C=C/c2ccc(O)cc2)c([N+](=O)[O-])c(=O)[nH]1,ribH,"enzyme activity, inhibitor",,pH 7.0,12 ± 5 µM
Cc1cccc(NC(=O)c2ccc(C#N)cc2)n1,"Grm5 (Rattus norvegicus, UniProt P31424)","ligand displacement, radioligand",,cell membranes,> 10 µM
CCN(CC)C(=O)Cn1c2ccccc2c2cc(-c3ccccc3OC)ccc21,TSPO A147T,radioligand binding,,together with: [3H]PK11195,0.137 ± 0.0209 µM
CCC#CC[C@H](C)[C@H](O)/C=C/[C@H]1CCC(=O)N1CCCCCCC(=O)O,"Ptger4 (Rattus norvegicus, UniProt P43114)","ligand displacement, radioligand",,,0.00111 µM
CCN(Cc1ccccc1)C(=O)Cn1c2ccccc2c2cc(Br)ccc21,TSPO A147T,radioligand binding,,together with: [3H]PK11195,0.123 ± 0.0163 µM
COc1ccc(/C=C/c2[nH]c(=O)[nH]c(=O)c2[N+](=O)[O-])c(OC)c1OC,ribH,"enzyme activity, inhibitor",,pH 7.0,48 ± 23 µM
N#Cc1cc(Cc2ccc3c(ccc4ccccc43)c2C#N)cc2c1ccc1ccccc12,ANPEP,"enzyme activity, inhibitor",,"30 min preincubation, 37 °C, together with: L-Leu-pNA",2.9 µM
O=C(O)c1ccccn1,mushroom tyrosinase,"diphenolase activity, inhibitor",,"pH 6.8, 20 °C, together with: caffeic acid substrate",2930 µM
CC1(CCN2CCc3ccccc3C2)Cc2cc(Cl)ccc2C1=O (stereo not drawn),"HTR2C (Homo sapiens, UniProt P28335)",radioligand binding,,together with: [3H]Mesulergine,1.38 µM
C[C@@H](O[C@H]1OCCN(Cc2n[nH]c(=O)[nH]2)[C@H]1c1ccc(F)cc1)c1cc(C(F)(F)F)cc(C(F)(F)F)c1,"UGT2B7 (Homo sapiens, UniProt P16662)","enzyme activity, inhibitor",,"30 min, pH 7.5",15.5 µM
COC(=O)C1(C)C=CC(=O)CC1 (stereo not drawn),MAPK1,"ligand displacement, FP",,,> 200 µM
O=C(O)c1ccc(/C=C/c2[nH]c(=O)[nH]c(=O)c2[N+](=O)[O-])cc1,ribH,"enzyme activity, inhibitor",,pH 7.0,35 ± 10 µM
CCCCCCC=O,CYP2A6,inhibitor,,"30 min, pH 7.4",16 ± 1 µM
O=C(O)c1ccc(/C=C/c2[nH]c(=O)[nH]c(=O)c2[N+](=O)[O-])c(O)c1,ribH,"enzyme activity, inhibitor",,pH 7.0,197 ± 112 µM
O=C(O[C@@H]1Cc2c(O)cc(O)cc2O[C@@H]1c1cc(O)c(O)c(O)c1)c1cc(O)c(O)c(O)c1,"Organic anion transporter 3 (Rattus norvegicus, UniProt Q9R1U7)","transporter uptake, inhibitor",,,56.5 µM
